Results pooled from the literature.
Each numbered part is a random draw from the data of one study; scales do not carry over between parts. pIC50: −log10 of the molar value.

Series 1 — read-out: enzyme activity; action: inhibitor; tested at: 20 µM
Target: Replicase polyprotein 1ab, polymerase (rep, Severe acute respiratory syndrome coronavirus 2, UniProt P0DTD1)
Structure (SMILES)	inhibition
C=CCNc1nc(NCC=C)nc(N2CCN(C(c3ccc(F)cc3)c3ccc(F)cc3)CC2)n1	11.7%
Nc1ccccc1C(=O)O	1.33%
Nc1cc(C(Cl)=C(Cl)Cl)c(S(N)(=O)=O)cc1S(N)(=O)=O	1.75%
CCCCC(=O)NCCc1c(Cc2ccccc2)[nH]c2ccccc12	-11.8%
Oc1cc2c(c(Cl)c1O)CCNCC2c1ccccc1 (stereo not drawn)	8.51%
Oc1cc(O)cc(O)c1	-0.99%
O=[N+]([O-])c1cc(Cl)ccc1S(=O)(=O)N1CCN(Cc2ccccc2)CC1	2.75%
CNC(=O)c1cc(COc2nnc(Nc3ccc(Cl)cc3)c3ccoc23)ccn1	-13.2%
C[C@@H]1CC(=O)NN=C1c1ccc(NN=C(C#N)C#N)cc1	2.3%
COC(=O)C(Cc1ccc(OCCn2c(=O)sc3cc(C(=O)c4ccccc4)ccc32)cc1)C(=O)OC	-1.95%
COc1cc2nc(N3CCN(C(=O)C4CCCO4)CC3)nc(N)c2cc1OC (stereo not drawn)	1.35%
O=C(Nc1ccc([N+](=O)[O-])cc1O)Nc1ccccc1Br	-10.7%
COc1ccc(C(=O)NCc2cccnc2)cc1C(=O)NCc1cccnc1	-3.05%
Cc1cccc(N(C)C(=S)Oc2ccc3ccccc3c2)c1	24.4%
COc1cc2nc(N3CCN(C(=O)C4COc5ccccc5O4)CC3)nc(N)c2cc1OC (stereo not drawn)	3.38%
Nc1nc(NCCNc2ncc(-n3ccnc3)c(-c3ccc(Cl)cc3Cl)n2)ccc1[N+](=O)[O-]	-6.32%
N[C@@H](Cc1c[nH]c2ccc(O)cc12)C(=O)O	-5.5%
C=CCN1CC[C@]23CCCC[C@H]2[C@H]1Cc1ccc(O)cc13	-1.98%
Clc1ccccc1CN1CCc2sccc2C1	12.7%
Nc1ccccc1NC(=O)c1ccc(CNc2nccc(-c3cccnc3)n2)cc1	-1.26%
CC1(C)S[C@@H]2[C@H](/N=C/N3CCCCCC3)C(=O)N2[C@H]1C(=O)O	0.74%
C=C(C)[C@@H]1CC[C@]2(C(=O)O)CC[C@]3(C)[C@H](CC[C@@H]4[C@@]5(C)CC[C@H](OC(=O)CC(C)(C)C(=O)O)C(C)(C)[C@@H]5CC[C@]43C)[C@@H]12	1.92%
Cc1cc(-c2ccc(CC(=O)Nc3ccc(-c4cccnc4)cc3)cc2)ccn1	-0.72%
O=C1CC2(CCCC2)CC(=O)N1CCCCNCC1COc2ccccc2O1 (stereo not drawn)	-2.83%
COc1cc(OC2CCN(C)CC2)ccc1Nc1ncc2c(n1)n(C1CCCC1)c(=O)n2C	3.67%

Series 2 — technique: protein binding microarray; form: double-stranded DNA, one strand shown; medium: in vitro; tested at: not given; baseline: not given; reading: higher = stronger binding
Target: Histone acetyltransferase KAT6A, both winged helices, GST fusion (KAT6A, Homo sapiens, UniProt Q92794, residues 1-181)
Notes: 8-mer, flanks averaged, mean of 2 arrays, mostly near background
Construct (chain): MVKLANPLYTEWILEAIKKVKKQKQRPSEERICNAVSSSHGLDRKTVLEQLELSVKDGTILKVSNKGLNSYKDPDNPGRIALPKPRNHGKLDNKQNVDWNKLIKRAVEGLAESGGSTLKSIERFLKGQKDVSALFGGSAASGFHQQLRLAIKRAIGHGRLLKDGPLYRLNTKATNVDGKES
Strand	E-score
CTGATAGA	-0.0903
TCAAATGA	-0.139
GATCTAGC	-0.018
ACCGTTCC	0.19
ATCTGCTC	-0.193
CTGCACAA	-0.0628
CTAGGATA	-0.0443
CAATCGCA	0.00365

Series 3 — cell line: HEK-293T; read-out: pseudovirus infection; technique: FDA-approved drug library screen; organism: VSV pseudotyped with SARS-CoV-2 spike; tested at: 10 µM; time: 16 h; baseline: vehicle-treated
SMILES	GFP-positive cells [%]
COc1cnc(NS(=O)(=O)c2ccc(N)cc2)nc1	102
Nc1ccc(S(=O)(=O)Nc2nccs2)cc1	126
CC(C)C(=O)Oc1ccc(CO)cc1[C@H](CCN(C(C)C)C(C)C)c1ccccc1	45.6
CC1CNc2c(cccc2S(=O)(=O)N[C@@H](CCCNC(=N)N)C(=O)N2CC[C@@H](C)C[C@@H]2C(=O)O)C1 (stereo partly drawn)	85.1
CCC(=O)OCC(=O)[C@@]1(OC(=O)CC)[C@@H](C)C[C@H]2[C@@H]3CCC4=CC(=O)C=C[C@]4(C)[C@@]3(F)[C@@H](O)C[C@@]21C	90.5

Series 4 — technique: universal PBM; form: double-stranded DNA, one strand shown; medium: in vitro; tested at: 600 nM; reading: higher = stronger binding
Target: Sal-like protein 4, full length isoform A (SALL4, Homo sapiens, UniProt Q9UJQ4, residues 1-1053)
UniProt Q9UJQ4, sequence (whole entry, looked up): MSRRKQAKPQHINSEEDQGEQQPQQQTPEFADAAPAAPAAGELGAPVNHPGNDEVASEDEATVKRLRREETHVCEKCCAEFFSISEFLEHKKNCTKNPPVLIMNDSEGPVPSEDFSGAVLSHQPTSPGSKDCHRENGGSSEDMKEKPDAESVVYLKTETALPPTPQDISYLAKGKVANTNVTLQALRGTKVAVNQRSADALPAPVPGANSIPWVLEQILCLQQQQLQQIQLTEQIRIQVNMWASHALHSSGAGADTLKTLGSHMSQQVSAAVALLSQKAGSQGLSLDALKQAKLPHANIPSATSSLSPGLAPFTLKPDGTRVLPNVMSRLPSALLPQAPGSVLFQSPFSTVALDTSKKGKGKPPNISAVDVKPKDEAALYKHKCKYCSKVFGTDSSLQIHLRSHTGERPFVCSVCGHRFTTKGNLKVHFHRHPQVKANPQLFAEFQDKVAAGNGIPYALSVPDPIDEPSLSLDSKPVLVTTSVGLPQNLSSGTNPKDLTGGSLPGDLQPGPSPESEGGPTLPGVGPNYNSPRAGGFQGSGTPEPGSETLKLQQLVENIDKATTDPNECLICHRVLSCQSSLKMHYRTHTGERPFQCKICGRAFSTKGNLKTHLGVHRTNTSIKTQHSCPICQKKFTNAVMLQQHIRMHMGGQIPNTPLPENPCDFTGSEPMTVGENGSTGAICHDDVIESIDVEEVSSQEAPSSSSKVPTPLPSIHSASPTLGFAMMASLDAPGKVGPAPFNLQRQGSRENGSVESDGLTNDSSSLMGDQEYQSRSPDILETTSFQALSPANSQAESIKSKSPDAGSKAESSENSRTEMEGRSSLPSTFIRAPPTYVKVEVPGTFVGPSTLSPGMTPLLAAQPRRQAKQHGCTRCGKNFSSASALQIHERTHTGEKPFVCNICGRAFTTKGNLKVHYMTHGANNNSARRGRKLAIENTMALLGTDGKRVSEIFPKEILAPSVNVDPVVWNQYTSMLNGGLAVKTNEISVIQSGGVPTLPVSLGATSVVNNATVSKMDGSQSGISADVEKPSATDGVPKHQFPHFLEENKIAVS
Notes: 8-mer, flanks averaged, mean of replicates
Strand	E-score
CTTTTGGA	0.0275
GATACACA	0.107
CAAGTCCC	-0.226
CGTAAAGA	0.0224
AACCCTCG	-0.184
CGGACTTA	-0.0272
ATGAGGGC	-0.166
ATGGCAAT	0.103

Mixed results
CREB1: Cyclic AMP-responsive element-binding protein 1 (CREB1, Homo sapiens, UniProt P16220, residues 1-327, full length assumed)
UniProt P16220, sequence (whole entry, looked up): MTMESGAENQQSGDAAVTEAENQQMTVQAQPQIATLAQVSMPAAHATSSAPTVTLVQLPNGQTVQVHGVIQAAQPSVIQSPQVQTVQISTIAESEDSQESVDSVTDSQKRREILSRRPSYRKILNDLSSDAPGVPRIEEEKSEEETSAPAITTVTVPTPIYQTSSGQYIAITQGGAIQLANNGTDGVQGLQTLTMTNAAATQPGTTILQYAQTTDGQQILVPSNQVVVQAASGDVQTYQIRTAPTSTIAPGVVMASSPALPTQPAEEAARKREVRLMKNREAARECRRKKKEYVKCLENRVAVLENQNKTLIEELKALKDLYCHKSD
Substance	target	test	system	conditions	how to read	measurement	result
ACGTGTC	CREB1	protein-binding microarray	double-stranded DNA, one strand shown, in vitro	not given, k-mer, scored over probes, only values ≥0.25	higher = stronger binding	E-score	0.272
O=C1OC2(c3cc(I)c(O)c(I)c3Oc3c2cc(I)c(O)c3I)c2c(Cl)c(Cl)c(Cl)c(Cl)c21	Replicase polyprotein 1ab, main protease (rep, Severe acute respiratory syndrome coronavirus 2, UniProt P0DTD1)	enzyme activity, inhibitor	–	no DTT	–	pIC50	< 4.70
ACCACGT	CREB1	protein-binding microarray	double-stranded DNA, one strand shown, in vitro	not given, k-mer, scored over probes, only values ≥0.25	higher = stronger binding	E-score	0.282
Cn1sc(=O)n(Cc2ccccc2)c1=O	chymotrypsin	enzyme activity, inhibitor	–	10 µM, with DTT	–	inhibition	4%
CACGGGG	Microphthalmia-associated transcription factor, full length (MITF, Homo sapiens, UniProt O75030-10, residues 1-413)	protein-binding microarray	double-stranded DNA, one strand shown, in vitro	not given, k-mer, scored over probes, only values ≥0.25	higher = stronger binding	E-score	0.423

Repeated from above (series 2):
Strand	E-score
TCAAATGA	-0.139
ATCTGCTC	-0.193
CTAGGATA	-0.0443
CTGATAGA	-0.0903
GATCTAGC	-0.018
CTGCACAA	-0.0628
ACCGTTCC	0.19
